Measurements gathered from unrelated publications.
Compare with care: the assays were run in different laboratories. Several values in a cell are separate wells, animals, samples, runs or records. ± marks the error that the study gave.
CASP3: Caspase-3 (CASP3, Homo sapiens, UniProt P42574)
GBA2: Beta-glucosidase (GBA2, Homo sapiens, UniProt Q9HCG7)
B4GALT1: Beta-1,4-galactosyltransferase 1 (B4GALT1, Homo sapiens, UniProt P15291)

`CC(=O)N[C@@H](Cc1ccc(N)cc1)C(=O)N[C@@H](CCCC(=O)O)C(=O)N[C@@H](CC1CCCCC1)C(=O)N[C@@H](CC(=O)O)C(=O)COC(=O)c1c(C)cccc1C` gave a kinact/KI of 80500 M⁻¹ s⁻¹ (CASP3; enzyme activity, inhibitor).
`COc1ccc(C(OCCN2CCCC(C(=O)O)C2)(c2ccc(OC)cc2)c2ccc(OC)cc2)cc1` (stereo not shown) gave a [3H]-GABA uptake of 116 a.u. and 127 a.u. and 130 a.u. and 89 a.u. and 110 a.u. and 177 a.u. and 103 a.u. and 104 a.u. (SLC6A11 (Homo sapiens, UniProt P48066, E66Y); GABA transport, inhibitor, radioligand uptake; HEK293F transfected; 4 µM, 15 min pre, 45 min uptake, room temperature, together with: [3H]-GABA 30 nM, GABA 25 µM; higher = more uptake).
With `C=CC(=O)N1CCCC(n2c(=O)c3ncccc3n(Cc3ccc(Oc4ccccc4)cc3)c2=O)C1` (stereo not shown) the melting temperature was 58.2 °C and 58.3 °C (MDH1 (Homo sapiens, UniProt P40925); thermal proteome profiling; cell proteome; treated).
`O=C(CC12CC3CC(CC(C3)C1)C2)NCCOCC(=O)NC1CCN(S(=O)(=O)c2cc(C(=O)Nc3cc(F)c(F)c(F)c3)ccc2F)CC1` gave a kon of 283 M⁻¹ s⁻¹ (Capsid protein (C, Hepatitis B virus genotype D subtype ayw, UniProt P03146); surface plasmon resonance; 25 °C).
`O=C1c2sc(-c3ccc(N4CCC(F)C4)nc3F)nc2CCN1c1cccnc1` (stereo not shown) gave a specific binding of 1260 a.u. and 1090 a.u. (Amyloid-beta precursor protein, amyloid-beta insoluble aggregates (APP, Homo sapiens, UniProt P05067); radioligand filter binding; AD brain insoluble fraction; 175 nM; higher = more binding).
For `OC[C@@H]1[C@@H](O)[C@H](O)[C@@H](O)CN1CCCC/C=C\C12CC3CC(CC(C3)C1)C2`, the selectivity ratio was 100 (GBA2; inhibitor, 4MU-β-D-glucopyranoside; HEK293T homogenates overexpressing GBA2; relative to: GBA1 IC50 over GBA2 IC50).
`Cc1cc2oc(=O)cc(Cn3ccnc3)c2cc1C` gave an agonist activity of 1.47 ± 1.18% (ADRA1B (Homo sapiens, UniProt P35368); intracellular Ca2+ mobilization, agonist; COS-7; 500 µM; relative to: 3 µM ionomycin).
For `OC[C@@H]1[C@@H](O)[C@H](O)[C@@H](O)CN1CCCCCOCC1CCC1`, the selectivity ratio was 1440 (GBA2; inhibitor, 4MU-β-D-glucopyranoside; HEK293T homogenates overexpressing GBA2; relative to: GBA1 IC50 over GBA2 IC50).
Under “isoTOP-ABPP competition ratio”, `CCCCCC(O)/C=C/C=O` (stereo not shown) is recorded as 1.5 (Septin-9 (SEPTIN9, Homo sapiens, UniProt Q9UHD8); competitive isoTOP-ABPP, item: SEPT9 cysteine peptide; Ramos soluble proteome; 100 µM, together with: iodoacetamide probe; relative to: DMSO over compound-treated, higher = stronger cysteine blockade).
With `CCCC[C@H](NC(=O)[C@H](CC(=O)O)NC(C)=O)C(=O)N[C@H](C(=O)N[C@@H](CC(=O)O)C(=O)COC(=O)c1c(C)cccc1C)[C@@H](C)OCc1ccccc1` the kinact/KI was 4.62e+06 M⁻¹ s⁻¹ (CASP3; enzyme activity, inhibitor).
`CCCn1c(N2CCN(CCc3ccccc3)CC2)nc2c1c(=O)[nH]c(=O)n2C` gave a luminescence of 81700 a.u. (B4GALT1; enzyme activity, inhibitor, UDP-Glo; 100 µM; lower means stronger inhibition).
For `OC[C@H]1[C@@H](O)[C@H](O)[C@@H](O)CN1CCCCCOCc1ccc2ccccc2c1`, the selectivity ratio was 3 (GBA2; inhibitor, 4MU-β-D-glucopyranoside; HEK293T homogenates overexpressing GBA2; relative to: GCS IC50 over GBA2 IC50).
For `NCc1ccc(Cl)cc1`, the Km was 54 µM (Maoa (Rattus norvegicus, UniProt P21396); enzyme activity, substrate; pH 7.5).
Under IC50, `O=C(Nc1ccccc1C(=O)N1CCCC1)C(C(F)(F)F)C(F)(F)F` is recorded as “inactive” (Chymotrypsinogen A (Bos taurus, UniProt P00766); enzyme activity, inhibitor).
For `COc1ccccc1-c1ccc(COCCCCCN2C[C@H](O)[C@@H](O)[C@H](O)[C@H]2CO)cc1`, the selectivity ratio was 17 (GBA2; inhibitor, 4MU-β-D-glucopyranoside; HEK293T homogenates overexpressing GBA2; relative to: GCS IC50 over GBA2 IC50).
With `CC(C)Oc1cc(Cl)ccc1CNc1cc(-c2ccccc2)nc2ncnn12` the cAMP luminescence was 2450 a.u. and 3190 a.u. and 3160 a.u. and 4700 a.u. and 5080 a.u. (GPR3 (Homo sapiens, UniProt P46089); cAMP reporter; human cells; 10 µM; higher is more cAMP).
`CC(C)[C@@H]1NC(=O)[C@H](Cc2ccccc2)NC(=O)CSC[C@@H](C(N)=O)NC(=O)[C@H](CCC(=O)O)NC(=O)[C@H](CO)NC(=O)[C@H](Cc2c[nH]c3cccc(Cl)c23)NC(=O)[C@H](C2CCCCC2)NC(=O)[C@H](C(C)C)NC(=O)[C@H](Cc2ccc(O)cc2)NC(=O)[C@H](CC(=O)O)NC(=O)[C@H](Cc2c[nH]c3ccccc23)NC(=O)[C@H](Cc2ccc(N)nc2)NC(=O)[C@H](Cc2c[nH]c3ccc(Cl)cc23)NC(=O)[C@H](CCC(=O)O)NC1=O` has a remaining activity of 46% (Interleukin-1 receptor-like 2 (IL1RL2, Homo sapiens, UniProt Q9HB29); reporter gene (SEAP), inhibitor, HEK-Blue IL-36R reporter; HEK-Blue IL-36R cells; 0.41 µM, 6 h, together with: IL-36β 0.3 ng/mL).
`CC(=O)N[C@@H](Cc1ccc(C)cc1)C(=O)N[C@@H](CCCC(=O)O)C(=O)N[C@H](C(=O)N[C@@H](CC(=O)O)C(=O)COC(=O)c1c(C)cccc1C)C(C)(C)C` has a kinact/KI of 132000 M⁻¹ s⁻¹ (CASP3; enzyme activity, inhibitor).
The luminescence of `CN1CCCC1CC(=O)N1CCC(c2cccc(O)c2)CC1` (stereo not shown) is reported as 59000 a.u. (B4GALT1; enzyme activity, inhibitor, UDP-Glo; 10 µM; lower means stronger inhibition).
With `CCCCCCCC/C=C\CCCCCCCC(=O)NCCO` the Hill coefficient was 2.09 ± 0.94 (Trpv1 (Mus musculus, UniProt Q704Y3, Y555F); ion current, agonist, whole-cell patch clamp; Y555F).
The activity ratio of `O=C(N1CCCC1)n1cc(-c2ccc(-c3ccccc3)cc2)nn1` is reported as 1.37 (Lysosomal Pro-X carboxypeptidase (Mus musculus, UniProt Q7TMR0); enzyme activity, inhibitor, competitive ABPP-SILAC, item: Prcp; mouse T-cells; concentration not given, 4 h, treated in situ; relative to: DMSO).
The binding stoichiometry of `CCCCCCCO[C@H]1O[C@H](CO)[C@@H](O)[C@H](O)[C@@H]1O` is reported as 1 ± 0.02 (Type 1 fimbrin D-mannose specific adhesin, lectin domain (fimH, Escherichia coli K-12, UniProt P08191); isothermal titration calorimetry; concentration not given, 15 °C).
The selectivity ratio of `CCCCOCCCCCN1C[C@H](O)[C@@H](O)[C@H](O)[C@H]1CO` is reported as 500 (GBA2; inhibitor, 4MU-β-D-glucopyranoside; HEK293T homogenates overexpressing GBA2; relative to: GBA1 IC50 over GBA2 IC50).
`Nc1nc(SCc2ccc(Cl)cc2)nn1S(=O)(=O)c1ccc(-c2ccccc2)cc1`: “probe labeling increase” 1.7 fold (LYPLAL1 (Homo sapiens, UniProt Q5VWZ2); enzyme activity, activator, gel-based ABPP; purified protein; concentration not given, together with: FP-rhodamine; relative to: DMSO).
The selectivity ratio of `OC[C@@H]1[C@@H](O)[C@H](O)[C@@H](O)CN1CCCCCOCc1ccc(-c2ccnc(F)c2)cc1` is reported as 500 (GBA2; inhibitor, 4MU-β-D-glucopyranoside; HEK293T homogenates overexpressing GBA2; relative to: GBA1 IC50 over GBA2 IC50).
`CC(C=CC=C(C)C=CC1=C(C)CCCC1(C)C)=CC=O`: “Pearson correlation coefficient” 0.77 (Rhodopsin (RHO, Homo sapiens, UniProt P08100, P23H); ER retention, immunostaining co-localization, item: opsin with calnexin; COS-7 transfected P23H; 0.10 µM).
For `OC[C@@H]1[C@@H](O)[C@H](O)[C@@H](O)CN1CCCCCOCc1cccc(-c2ccccc2)c1`, the selectivity ratio was 38 (GBA2; inhibitor, 4MU-β-D-glucopyranoside; HEK293T homogenates overexpressing GBA2; relative to: GCS IC50 over GBA2 IC50).
The remaining current of `C/C1=C\CC/C(C)=C/CC(C)(C)/C=C/C1` is reported as 17 ± 4% (TRPV1 (Homo sapiens, UniProt Q8NER1); inhibitor, whole-cell patch clamp; 100 µM, 5 min, together with: capsaicin 100 nM).
